Experimental data gathered from unrelated publications.
Numbers after ± are the reported error.

For `CNC(=O)c1ccc(-c2cnc3ncc(Cc4ccc5ncccc5c4)n3n2)cc1F`, the AUC(0-t) was 6590 ng·h/mL (human mild hepatic impairment NCI; oral, 200 mg single dose, geometric mean).
`C1=C/COCc2cc(ccc2OCCN2CCCC2)Nc2nccc(n2)-c2cccc(c2)COC/1` gave a Vz/F of 87.7 ± 91.6 L (LC-MS/MS; Sprague-Dawley rat, male, plasma; oral, 36 mg/kg, added: isavuconazole 20 mg/kg oral).
`O=C(O)c1cccc(C(=O)O)c1` — result for “apparent dissolution enthalpy”: 3.36 kcal/mol (betaine/glycerol DES-water; DES mass fraction 0.60).
For `Cn1cncc1-c1c(F)cncc1NC(=O)c1c(N)nn2cc(F)cnc12`, “grade ≥2 adverse events” read 57.1% (patients, advanced solid tumours; oral, 130 mg once daily; relative to: patients).
`C[C@H]1C=C(Cc2ccccc2)C(=O)O1` gave a DT50 of 8.77 days (water/sediment; 20 °C, whole system, longest, aerobic dark).
For `Nc1ncn([C@@H]2O[C@H](CO)[C@@H](O)[C@H]2O)c(=O)n1`, the viability was 102% (HBL-1; 1 µM, 120 h).
`NC1(C(=O)N[C@@H](CCO)c2ccc(Cl)cc2)CCN(c2nc[nH]c3nccc2-3)CC1`: “incidence of Amnesia” 0% (metastatic CRPC patients; 400 mg b.i.d., grade 3 to 4, treatment-related, added: enzalutamide 160 mg daily).
`Cc1ccc(Sc2ccccc2N2CCNCC2)c(C)c1` — result for “any adverse event”: 0% (healthy adult men; oral, 2.5 mg single).
`O=C(O)c1cc(O)c(O)c(O)c1` has a digestibility increase of 17.2% (chicken broilers, duodenum vs crop content; oral, 2000 mg/kg feed; relative to: crop).
With `CCCn1nccc1S(=O)(=O)N1C/C=C\CN2[C@H](CO)[C@@H](c3ccc(-c4cccc(C)c4C)cc3)[C@@H]2C1` the EC50 was 18 nM (Insulin-degrading enzyme (IDE, Homo sapiens, UniProt P14735); enzyme activity, inhibitor, fluorescence kinetic; added: Mca-RPPGFSAFK(Dnp)-OH substrate).
The Tmax of `COCc1cc(C(=O)Nc2cc([C@H]3CC[C@@H](OC(=O)NC(C)C)C3)[nH]n2)n(C)n1` is reported as 7.5 h (OVCAR-3 xenograft, NOD/SCID gamma mice, plasma; oral, 175 twice daily, tumour growth inhibition study).
With `N#CN1C[C@H](n2nc(-c3ccc(Oc4ccc(Cl)cn4)cc3)c(C(N)=O)c2N)CCC12CC2` the AUC(0-24h) was 12300 ± 4320 ng·h/mL (human, fasted, plasma; oral, 600 mg).
The ECG observations of `CCOc1c([C@H](C)n2nc(C)c3c(N)ncnc32)cc(Cl)c(F)c1[C@@H]1CNC(=O)C1` is reported as 0% (measured: QTcF change above 60 ms; previously treated B-cell malignancy; oral, 5 mg once daily, overall population; relative to: baseline).
Under “adverse event incidence”, `FC(F)(F)c1ccc(CNc2ccc(Cc3c[nH]c4ncc(Cl)cc34)cn2)cn1` is recorded as 17% (measured: alanine aminotransferase increased; patients with advanced solid tumours; oral, dose not given, grade 1 and 2, possibly related to drug).
Under “Irwin test score”, `O=C1NCCc2nc(OCc3cccc(F)c3)ccc21` is recorded as 0.2 (measured: loss of Grasping; Sprague-Dawley rat male; oral, 100 mg/kg, 4 h; direction not given).
For `OC[C@H]1O[C@@H](c2ccc(F)c(Cc3cc4ccccc4s3)c2)[C@H](O)[C@@H](O)[C@@H]1O`, the renal clearance was 1.95 ± 0.445 mL/min (Japanese type 2 diabetes patients, plasma; oral, 100 mg/day, day 1).
`C[C@H]1CN(C(=O)CC#N)[C@]12CCN(c1ncnc3[nH]ccc13)C2`: “subjects with Vomiting” 12.5% (healthy human; oral, 6 mg single).
For `O=C(Nc1nc2cccc(-c3ccc(CN4CCS(=O)(=O)CC4)cc3)n2n1)C1CC1`, “treatment-emergent adverse events” read 0% (measured: vascular disorders; rheumatoid arthritis patients; oral, 150 mg once daily, 4 weeks, any relatedness).
`O=C(O)CCNc1cc(N2CCc3ccccc3CC2)nc(-c2cccnc2)n1` has a viability of 120% (HBL-1; 0.1 µM, 120 h).
`CC(C)C[C@H](NC(=O)CNC(=O)c1cc(Cl)ccc1Cl)B(O)O`: “treatment-emergent adverse events” 6% (measured: Arthralgia; human newly diagnosed multiple myeloma; oral, dose not given, maintenance, grade 3, onset cycle 17 or later).
For `C=CCn1c(=O)c2cnc(Nc3ccc(N4CCN(C)CC4)cc3)nc2n1-c1ccc2c(n1)[C@@](O)(CC)CC2`, the Cmax was 6480 ng/mL (female NOD/SCID mouse OVCAR-3 xenograft, plasma; oral, 100 mg/kg once daily, :3).

For quick reference, copied from above:
For `CNC(=O)c1ccc(-c2cnc3ncc(Cc4ccc5ncccc5c4)n3n2)cc1F`, the AUC(0-t) was 6590 ng·h/mL (human mild hepatic impairment NCI; oral, 200 mg single dose, geometric mean).
`C1=C/COCc2cc(ccc2OCCN2CCCC2)Nc2nccc(n2)-c2cccc(c2)COC/1` gave a Vz/F of 87.7 ± 91.6 L (LC-MS/MS; Sprague-Dawley rat, male, plasma; oral, 36 mg/kg, added: isavuconazole 20 mg/kg oral).
`O=C(O)c1cccc(C(=O)O)c1` — result for “apparent dissolution enthalpy”: 3.36 kcal/mol (betaine/glycerol DES-water; DES mass fraction 0.60).
